# Experimental data pooled from the literature.
# A part holds a random share of what one study measured. Substitutions count along the parent as printed.

# Sample 1
# Target: Histone acetyltransferase KAT6A, winged helix 2, GST fusion (KAT6A, Homo sapiens, UniProt Q92794, residues 85-181)
# Technique: protein binding microarray
# Molecule type: double-stranded DNA, one strand shown
# Sample: in vitro
# Tested at: not given
# Notes: 8-mer, flanks averaged, mean of 2 arrays, mostly near background
# Baseline: not given
# Reading: higher = stronger binding
# Target sequence (chain): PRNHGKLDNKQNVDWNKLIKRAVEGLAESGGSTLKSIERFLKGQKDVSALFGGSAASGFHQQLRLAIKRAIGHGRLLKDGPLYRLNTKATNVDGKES
Strand,E-score
CTCGATGC,0.114
CATCATGC,-8e-05
AGACAACC,-0.0442
CTTCCTCC,0.0961
ACTACAGG,-0.0269
ATACACAT,-0.107
ACAGCCCG,-0.00623
AGAACGCA,0.0887
AATGTTAT,-0.101
TAGCAGCA,0.122
AGTGTGCC,0.101
TCTCGCAA,0.166
CAACCCCG,-0.00715
CCAGAAAG,0.0076
ACCGTGCA,-0.0991
ACAACACG,-0.124
CGGCTTAG,0.116
GCTTTTGA,0.0425
CTTCCACA,0.0795
GGTTGCAC,-0.0101

# Sample 2
# Target: RNA binding protein fox-1 homolog 2, RRM domain, GST-SBP tag (RBFOX2, Homo sapiens, UniProt O43251-10, residues 100-194)
# Technique: RNA Bind-n-Seq
# Molecule type: RNA
# Sample: in vitro
# Tested at: 365 nM
# Notes: natural RNA segment, single round, ends assumed
# Baseline: no-protein control
# Reading: higher = stronger binding
# Shared flanks, not repeated: GGGAGUUCUACAGUCCGACGAUC … UGGAAUUCUCGGGUGCCAA
# Construct (chain): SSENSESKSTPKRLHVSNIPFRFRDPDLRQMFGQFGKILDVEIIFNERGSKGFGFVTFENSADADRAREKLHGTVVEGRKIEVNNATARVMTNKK
Strand,RBNS enrichment (R)
AGCUCUGGCAAGGGCGUCAGGGUCCUAAUCUGGAUGGGUAUUGAUCAUGUCCAACCUGCUGGAGCCCCUUCACAUGGUGGAUGAUGCCCCAUGACCCUGUAGAAAUUGAA,1.51
UUUUUUAAAAAUUGAGGAGCUUUAUUUCUAUUUACCCUUCCAUUUUUGUAUAUCAAAUUUCCAUUGUCAUUAAAAACUGUAUCUUGAAACUUUGUGAACUGACUUGCUGU,0.666
GGUUACCAUCAGAGUGGAUGUACCAUUGAGUUAAAAACAAGAUAGAAAAACUGCCAAGUUGUUUGGCAAGUGAUUGUUCUGAAAUACCUUGCAAGAUACCGAUAUUCAAG,0.389
UCCUCACUCUUCCACUGACCCACUGUGUGACCUGAAGAGAGCCCUGCCCUCUCUGAGCCUCAGUGUUUGGAGGGCCCCAAAGAAUUCCCGUCUUGUGGGGGAGUUUUCUU,0.291
UAUAAUAAACAGCCGGUGGUUAUGGUGUGGUGUGAGCAGGCCCCCGGAUCACCAGCCCUCUGCUGGUGGUCAUAAAGCACACACAGUUUGUACUUGCUUCCUCUCGACGC,0.267
UAGCCCACCUCCCAAGGCACCUGUGCCUCCACUCAGGAUGUCUUGCUCUGACUGGCUCCCCUUCCAGACUGCCUUUUCUGGCCUUUCUGGGGUUCCCUGUUGGUGCCACA,0.562
GAGCUUGAAGGUGAGGCCUGAGGGGCCACAGAUGAGUCAUGUUUUAGUGCUGAUGACAGAGGGGCCGGUCGCAUGGGAUGAGGCUCGGUGGGCCUCUUGCUUGUUGUCUC,8.3
GGCGUAGCAUCAUAGUAGUUUUUACAGCUGUGUUAUUCUUUGCGUGUAGCUAUGGAAGUUGCAUAAUUAUUAUUAUUAUUAUUAUAACAAGUGUGUCUUACGUGCCACCA,0.585
CCCGAGAUGAUCCUCAGCAUGAUGGACCGGUGUGGCGGAGCCUUGUGCGUCGCCAGGACUUCUCUGGGCUGUGUUUAAACGGCCCGCAUCUUAAUUUUUCUCCCUUCUUU,33.2
CCACUGACUGAGCUGUCCUGCAAACCAGUCAAUACCUUAUGGUUAUGUCUGAAGGUUUUAAAUAGUGGUUGACCCAACACCUUGGACUGAAAUUUUGAAAAGUUUUGAAA,0.367
CUGCCUUUUGGGUCAGUAUAGGAUGCAUAAGUGGUAGAAUCUUCACACUUCCCACUGCCAAGAUUUUGUAUUGCCAUCAGGUGCCAAAUAAAUGUUGAUACUUAUUACUG,0.495
CAGCUGAAAAUGAAGGUAAUUAAAACCAUGGAGGCGAUCAGCGAGGUUCUCCAGGACCUUAGGUUUGAUGCGGAAUCUGCCGAGUGAUGGCGGCUCCCCAGGGAUGCGCC,0.472

# Sample 3
# Target: CCNB1, cyclin fold, Cln2 fusion (human)
# Technique: yeast growth competition, sequencing
# Sample: yeast
# Notes: strong parent motif
# Baseline: not given
# Reading: higher = stronger binding
# Starting sequence: PKMYT1 docking peptide (human); SFEPRNLLSLFED; partner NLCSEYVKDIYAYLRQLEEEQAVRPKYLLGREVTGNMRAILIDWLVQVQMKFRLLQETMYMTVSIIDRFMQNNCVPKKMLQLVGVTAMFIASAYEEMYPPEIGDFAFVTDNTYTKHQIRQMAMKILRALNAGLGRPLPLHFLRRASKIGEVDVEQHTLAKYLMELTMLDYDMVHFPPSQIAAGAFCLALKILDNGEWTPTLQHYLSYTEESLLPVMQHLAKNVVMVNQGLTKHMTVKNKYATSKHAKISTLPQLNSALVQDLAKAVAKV
Variant,normalised enrichment score
R5K F11L,1.09
N6M,-1.34
R5I,0.974
L8K,0.204
E12H,0.207
S1H,1.76
E12P,-0.574
F2R,0.304
L8D,0.247
S9H,0.636
L10H,0.362
F11C,0.0368
P4K,0.214
E12F,-0.00289
E12W,0.223
E12V,0.76
L10V,0.441

# Sample 4
# Target: PABPC1L2, full length, GST fusion (mouse, UniProt A0ABA7IW68)
# Technique: RNAcompete
# Molecule type: RNA
# Sample: in vitro
# Tested at: 20 nM
# Notes: 7-mer, probes averaged, single round
# Baseline: mean of 7-mers
# Reading: higher = stronger binding
# Target sequence (chain): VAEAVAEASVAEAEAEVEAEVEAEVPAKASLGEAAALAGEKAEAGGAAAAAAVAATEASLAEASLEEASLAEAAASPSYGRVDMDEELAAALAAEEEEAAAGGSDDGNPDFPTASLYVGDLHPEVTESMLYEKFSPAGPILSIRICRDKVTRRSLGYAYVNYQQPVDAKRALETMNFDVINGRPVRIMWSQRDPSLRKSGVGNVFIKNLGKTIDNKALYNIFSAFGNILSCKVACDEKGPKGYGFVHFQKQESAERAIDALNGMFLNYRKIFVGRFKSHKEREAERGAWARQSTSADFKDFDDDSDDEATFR
Strand,7-mer Z-score
AUAAGUC,-0.0138
ACAUGUU,-0.255
UACGCAC,-0.104
ACUACGU,-0.179
CUCCCAC,-0.335
UGUAGUU,-0.267
UAUUACA,-0.155
GUCCUCG,-0.38
AUUUAUU,-0.0101
UCACUGG,-0.235
UGGGAAA,0.635
ACUAGGU,-0.19
UCCGGAG,-0.159
CUAGUCC,-0.485
UUGGGUU,-0.335
ACGAUAA,0.546
UCCCCCU,-0.485
UGAUUUC,-0.38
AAGCCAA,0.229

# Sample 5
# Target: Homeobox protein Hox-C11, full length (HOXC11, Homo sapiens, UniProt O43248, residues 1-304)
# UniProt O43248, sequence (whole entry, looked up): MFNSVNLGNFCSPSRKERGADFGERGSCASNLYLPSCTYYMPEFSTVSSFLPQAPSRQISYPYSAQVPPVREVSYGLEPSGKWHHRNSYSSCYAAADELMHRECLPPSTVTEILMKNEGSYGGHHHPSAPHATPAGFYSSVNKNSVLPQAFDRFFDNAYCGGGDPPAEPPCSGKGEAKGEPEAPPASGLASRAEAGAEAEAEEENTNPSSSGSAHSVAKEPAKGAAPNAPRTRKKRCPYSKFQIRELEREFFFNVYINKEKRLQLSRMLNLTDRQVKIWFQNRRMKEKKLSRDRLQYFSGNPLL
# Technique: protein-binding microarray
# Molecule type: hairpin DNA
# Sample: in vitro
# Tested at: not given
# Notes: whole hairpin DNA, median over replicate spots
# Baseline: not given
# Reading: higher = stronger binding
# Shared flanks, not repeated: GAGGCCA … TGGCCTCACACTC
Strand,median fluorescence [a.u.]
GGTCGTAAAAGCCTCCTGGCTTTTACGACC (5mC at 11 33),10300
GGCGGTAAAAGCCTCCTGGCTTTTACCGCC,10600
GGTTGTTAAAGCCTCCTGGCTTTAACAACC,8360
GGGCGTAAAAGCCTCCTGGCTTTTACGCCC,9770
GGTCGTAAACGCCTCCTGGCGTTTACGACC (5mC at 17),10900
GGTCTTAAAAGCCTCCTGGCTTTTAAGACC,7850
GTTCGTTAAAGCCTCCTGGCTTTAACGAAC,8550
TGTCGTTAAAGCCTCCTGGCTTTAACGACA,9290
GGCGGTAAAAGCCTCCTGGCTTTTACCGCC (5mC at 34),10100
GGTCGTTACGGCCTCCTGGCCGTAACGACC (5mC at 16 28),10700
GGTCGCGAAAGCCTCCTGGCTTTCGCGACC (5mC at 13),10800
GGTCGTTAAAGCCTCCTGGCTTTAACGACC (5mC at 36),11500
GGTCCGTAAAGCCTCCTGGCTTTACGGACC (5mC at 12 32),9380
GCGCGTTAAAGCCTCCTGGCTTTAACGCGC (5mC at 35),10300
GGTCGTACGAGCCTCCTGGCTCGTACGACC,10300
CGTCGTAAAAGCCTCCTGGCTTTTACGACG,9230
GCTCGTAAAAGCCTCCTGGCTTTTACGAGC (5mC at 9),8700

# Sample 6
# Target: RING finger protein unkempt homolog, zinc fingers 1-6, GST-SBP tag (UNK, Homo sapiens, UniProt Q9C0B0, residues 30-357)
# Technique: RNA Bind-n-Seq
# Molecule type: RNA
# Sample: in vitro
# Tested at: not given
# Notes: RNA with constant flanks, ends assumed
# Baseline: input RNA pool
# Reading: higher = stronger binding
# Shared flanks, not repeated: GGGAGUUCUACAGUCCGACGAUC … CAACAGAGGAUUGAGCAUCA
# Target sequence (chain): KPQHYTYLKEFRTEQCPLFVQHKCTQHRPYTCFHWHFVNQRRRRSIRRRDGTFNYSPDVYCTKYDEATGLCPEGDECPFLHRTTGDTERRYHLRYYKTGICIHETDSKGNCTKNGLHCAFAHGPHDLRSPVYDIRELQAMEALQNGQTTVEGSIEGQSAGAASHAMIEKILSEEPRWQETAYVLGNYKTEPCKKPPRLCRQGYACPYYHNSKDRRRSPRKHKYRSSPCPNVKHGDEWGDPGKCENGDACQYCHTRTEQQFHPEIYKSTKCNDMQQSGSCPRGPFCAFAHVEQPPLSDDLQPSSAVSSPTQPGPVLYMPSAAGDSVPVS
Strand,bound/input enrichment [ratio]
UAUUGCAAGGACCUUCUUUGCUGCCAGUUACCAUAGGCUGUUUUAAGUUAGAAAACUGAACCGCAACACUGAAUACUGUAGAGAUGCACUUUGCUCAGUAAUACUUGAGUUGUUGCAAUA,0.347
GCAGCAAGAUCAUGUGCAUAUCAUCCCAUUGUAAAGCAACUUCAAAAAUAUGGGAACAGUCCGUUAUUUUUACACAGUUCUUUUUGUUUGUGUGUGUGUGUGUGUGCUGUCGCUUGUCGA,0.228
UUUUAUGAACGACUGGCAGGCCAUGGCCCUAAACUAGGACCUGUCACCAGGAAGUAUCCUUCCGUUACCAGGUAUUUUACUUUCCCCUUUGGAGAAAUGGCCUUAUCCGCAGAGGAAGCC,1.1
GGCUCUACGGCGAUUAAGAAGAAACAGCAAGAUGUGCUUUGUUUCUUAGAAGCCAACAAAACCGGAUUUGAAGAAAAAGAUAUUGCAGCUAAUGAAGAGAAUCGGAAGUGGAUGAGAGAA,0.383
UGUAUUCGAUAGAUCUCUACAACUAUGCCCCUUAUCGUAGGGAAUACUCAUAACUUUGUGUCCGCACGAUGGAGGAUACAAUGCUUUGCAGCAUAAGAGAGAAAAUAGUUCUACUAGCCA,1.06
CACUGCAUUGCCACUGAGAACAGCUUCAAACAGACCAUAGCCAAGAUCAACUUCAAAGUUUCCGAUUCAGAAAUGGUGGCCGUUGUGACAGACAAGUGGUCCCCGUGGACAUGGGCUGGC,0.0892
UUACUUUUAACUCCAUGGGUUAAAUUCCUGUGGGAGUCUUACAGGCAGUGUUUGGACCUUCUCCGAAACAAUUCUAGAGUAGAGCGCCUGUACCAUGAUAUUGCCCAGCAAGCUUUCAAA,0.33
UUUGUUUGUAACUUAUCUGUAAAAGGUUCCCCCCCCCUACUGUCAAAAAAUAUGCAUGUACCGUAAUCCGGACUUCAUUCCUCCAUGUUUUCUUCCCUUAUCUUACUGUCAUUGUCCUUA,0.834
UUGAAACUUUCUCCAAUUAAAUAUGGCUACCAGCCCCGCAGGAACUUUUGGCCAGCAAGGUCCGCUGCAAGACUCUUAAAACUUCGAUAUAUCAUACUGGGAUCUGCUGUUGGAGGUGGC,0.681
GAUGCAGUUCUUAUUGAUUACCAGAGAAAUGUACCAGCUGCUAGAGAACCAGAAGUGCUCCGUACUAUGGCCAUUAUUGUCAACAAAUUAGGUGGACAUAUAACAGCUGAAAUACCUCAA,0.204
CAGUCCCCGUGUCCCAGUGCAGGACGAUGUGAACAAAAACUCAAAGCGGACCCUCUAUUGCCGUUCUUGAUUCUCGAAAUGUGCUAUUAUUGUUUGUCUUUUUUUUUUUUUUUUUAAAGA,0.677

# Repeated from above (sample 3):
Variant,normalised enrichment score
L8K,0.204
E12H,0.207
S1H,1.76
E12P,-0.574
F2R,0.304
L8D,0.247
S9H,0.636
L10H,0.362
F11C,0.0368
P4K,0.214
E12F,-0.00289
E12W,0.223
E12V,0.76
